Published values pooled from the literature.
Compare with care: the assays were run in different laboratories. ± marks the error that the study gave.
Chain of UniProt Q05655 (whole entry, looked up): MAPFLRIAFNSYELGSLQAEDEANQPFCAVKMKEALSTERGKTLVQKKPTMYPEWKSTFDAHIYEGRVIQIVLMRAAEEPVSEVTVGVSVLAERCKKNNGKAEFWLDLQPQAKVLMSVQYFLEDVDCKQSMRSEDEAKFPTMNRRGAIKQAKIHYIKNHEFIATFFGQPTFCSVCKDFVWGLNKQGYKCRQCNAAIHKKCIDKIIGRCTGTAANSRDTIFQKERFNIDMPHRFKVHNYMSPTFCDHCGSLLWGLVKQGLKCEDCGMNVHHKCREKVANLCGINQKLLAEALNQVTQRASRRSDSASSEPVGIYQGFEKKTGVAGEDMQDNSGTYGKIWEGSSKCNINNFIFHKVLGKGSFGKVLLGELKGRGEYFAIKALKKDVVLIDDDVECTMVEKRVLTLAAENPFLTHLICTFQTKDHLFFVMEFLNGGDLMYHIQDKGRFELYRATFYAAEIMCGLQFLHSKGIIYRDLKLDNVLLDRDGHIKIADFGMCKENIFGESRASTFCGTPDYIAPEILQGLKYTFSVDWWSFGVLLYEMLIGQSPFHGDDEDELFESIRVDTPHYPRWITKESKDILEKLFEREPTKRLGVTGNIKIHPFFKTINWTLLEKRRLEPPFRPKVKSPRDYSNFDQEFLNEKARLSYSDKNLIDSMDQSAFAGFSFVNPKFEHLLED

Structure (SMILES) | target or system | test | test system | conditions | how to read | quantity | value
CN(C)CCNC(=O)c1ccc2c(c1)C1(CCN(CC3CC3)C1)CN2Cc1ccccc1 (stereo not shown) | Vero-E6 | CellTiter-Glo ATP |  | 72 h, second round 5-point | relative to: DMSO 0%, hyamine -100%, more negative, more toxic | maximum response | -3.4%
CO[C@H]1C[C@@H]2CC[C@@H](C)[C@@](O)(O2)C(=O)C(=O)N2CCCC[C@H]2C(=O)O[C@H]([C@H](C)C[C@@H]2CC[C@@H](OC(=O)NCCOCCOCCOCCOCCOCCOCCOCCOCCC(=O)N3CCc4cc(Cn5nc(-c6ccc7oc(N)nc7c6)c6c(N)ncnc65)ccc4C3)[C@H](OC)C2)C[C@@H](O)[C@H](C)/C=C(\C)[C@@H](O)[C@@H](OC)C(=O)[C@H](C)C[C@H](C)/C=C/C=C/C=C/1C |  |  | patients with advanced solid tumours | intravenous, 16 mg weekly, grade 3 or higher |  | fatigue incidence | 0%
Cn1ncc(-c2nc(N[C@H]3CC[C@H](N)CC3)ncc2Cl)c1CC1CC1 |  | phase I dose escalation | human patients | dose not given, grade 3 or higher TEAE |  | alanine aminotransferase increase incidence | 10%
C[C@H]1CN(c2n[nH]c3nc(N[C@H]4CC[C@H](NS(=O)(=O)CCC(F)(F)F)CC4)ncc23)CCO1 | PRKCD (Homo sapiens, UniProt Q05655) | inhibitor, Kinobeads competition profiling |  | 20 µM | relative to: vehicle | relative abundance | 1.08
COc1ccc2nc3cc(Cl)ccc3c(Nc3cc(CN4CCCC4)c(O)c(CN4CCCC4)c3)c2n1 |  |  | mouse, blood | intraperitoneal, 28 mg/kg |  | lymphocyte count | 5.49 10⁹/L
COc1ncccc1-c1cnn2ccc(N3CCN(C(=O)OC(C)C)CC3)nc12 |  |  | rat CCI model, plasma | oral, 10 mg/kg, 210 min |  | free concentration | 36 nM
CC(=O)c1c(C)c2cnc(Nc3ccc(C4CCN(CCS(C)(=O)=O)CC4)cn3)nc2n(C2CCCC2)c1=O |  |  | human patients, plasma | oral, 100 mg twice daily, day 1 single dose, with: fulvestrant |  | clearance | 1900 mL/min
NC(=O)[C@H]1CCN(c2ncnc(N)c2F)C[C@@H]1N1CCC[C@@H](Nc2cc(Cl)cc(C(F)(F)F)c2)C1=O |  |  | B-cell malignancy patients | oral, 328 mg twice daily, dose |  | grade ≥3 anaemia | 0%
Cc1cc(C)c(CNC(=O)c2cc(Cl)c3c(c2C)O[C@@](C)([C@H]2CC[C@H](N(C)C)CC2)O3)c(=O)[nH]1 |  |  | human, relapsed/refractory NHL | concentration not given, treatment-related TEAEs, grade 5 |  | Anaemia incidence | 0%
Cc1ccc(C(C)Nc2nc(N3CCNCC3)nc3ccccc23)cc1 (stereo not shown) | Vero-E6 | CellTiter-Glo ATP |  | 72 h, second round 5-point | relative to: DMSO 0%, hyamine -100%, more negative, more toxic | maximum response | -3.94%
CC(C)C[C@H](NC(=O)[C@H](CCCCN)NC(=O)OCC1c2ccccc2-c2ccccc21)C(=O)N[C@H](C(=O)N[C@@H](Cc1ccccc1)C(=O)N[C@@H](Cc1ccccc1)C(=O)N[C@@H](CCCCN)C(=O)NCC(=O)N[C@@H](Cc1ccccc1)C(=O)N[C@@H](C)C(=O)N[C@@H](Cc1c[nH]c2ccccc12)C(=O)N[C@@H](CC(N)=O)C(=O)N[C@H](C(=O)N[C@H]1CSSC[C@@H](C(=O)N[C@@H](Cc2c[nH]cn2)C(=O)N[C@@H](CCCNC(=N)N)C(=O)N[C@@H](CCCNC(=N)N)C(=O)N[C@@H](C)C(=O)N[C@@H](CC(N)=O)C(N)=O)NC(=O)[C@H](C(C)C)NC(=O)[C@H](CCCNC(=N)N)NC(=O)[C@H](C(C)C)NC(=O)CNC(=O)[C@H](CC(N)=O)NC(=O)[C@H](CCCNC(=N)N)NC(=O)[C@H](Cc2ccc(O)cc2)NC(=O)[C@H](C(C)C)NC1=O)C(C)C)C(C)C |  |  | ICR mouse, blood | intramammary, 5 mg/kg, day 5, 3 d dosing |  | glucose | 1.59 ± 0.12 mmol/L
CN1CC[C@@H](c2c(O)cc(O)c3c(=O)cc(-c4ccc(C(F)(F)F)cc4Cl)oc23)[C@@H]1CO |  | measured: Epistaxis | relapsed B-cell malignancies or AML | oral, 50 mg, grade 3-4, continuous dosing |  | patients with adverse event | 0%
COc1ncnn2ccc(-c3cnc4nc(C)n(Cc5nnc([C@@H](C)F)o5)c4c3)c12 |  |  | human patients | oral, dose not given |  | incidence of taste disorder (all grades) | 14.3%
COc1cc2c(Oc3ccc4[nH]c(C)cc4c3F)ccnc2cc1OCC1(N)CC1 |  |  | paediatric recurrent refractory sarcoma | 8 mg |  | grade 1 or 2 Headache | 0%
O=C(c1ccc(F)c(F)c1Nc1ccc(I)cc1F)N1CC(O)([C@@H]2CCCCN2)C1 |  |  | patients aged 2 to 6 years | oral, dose not given |  | related AE leading withdrawal | 0%
C[C@]1(CO)Cc2ncn(-c3ccc(C#N)c(Cl)c3)c2C(=O)O1 |  |  | human | 10 mg, European food-effect part, fed |  | drug-related urine abnormality | 0%

Some of these lines once more:
Structure (SMILES) | target or system | test | test system | conditions | how to read | quantity | value
CC(=O)c1c(C)c2cnc(Nc3ccc(C4CCN(CCS(C)(=O)=O)CC4)cn3)nc2n(C2CCCC2)c1=O |  |  | human patients, plasma | oral, 100 mg twice daily, day 1 single dose, with: fulvestrant |  | clearance | 1900 mL/min
CC(C)C[C@H](NC(=O)[C@H](CCCCN)NC(=O)OCC1c2ccccc2-c2ccccc21)C(=O)N[C@H](C(=O)N[C@@H](Cc1ccccc1)C(=O)N[C@@H](Cc1ccccc1)C(=O)N[C@@H](CCCCN)C(=O)NCC(=O)N[C@@H](Cc1ccccc1)C(=O)N[C@@H](C)C(=O)N[C@@H](Cc1c[nH]c2ccccc12)C(=O)N[C@@H](CC(N)=O)C(=O)N[C@H](C(=O)N[C@H]1CSSC[C@@H](C(=O)N[C@@H](Cc2c[nH]cn2)C(=O)N[C@@H](CCCNC(=N)N)C(=O)N[C@@H](CCCNC(=N)N)C(=O)N[C@@H](C)C(=O)N[C@@H](CC(N)=O)C(N)=O)NC(=O)[C@H](C(C)C)NC(=O)[C@H](CCCNC(=N)N)NC(=O)[C@H](C(C)C)NC(=O)CNC(=O)[C@H](CC(N)=O)NC(=O)[C@H](CCCNC(=N)N)NC(=O)[C@H](Cc2ccc(O)cc2)NC(=O)[C@H](C(C)C)NC1=O)C(C)C)C(C)C |  |  | ICR mouse, blood | intramammary, 5 mg/kg, day 5, 3 d dosing |  | glucose | 1.59 ± 0.12 mmol/L
